Measurements gathered from unrelated publications.
A part holds a random share of what one study measured. Substitutions count along the parent as printed.

Block 1
Target: Sal-like protein 4, full length isoform B (SALL4, Homo sapiens, UniProt Q9UJQ4-2, residues 1-616)
Technique: universal PBM
Molecule type: double-stranded DNA, one strand shown
Matrix: in vitro
Tested at: not given
Setting: 8-mer, flanks averaged, mean of replicates
Direction: higher = stronger binding
Endpoint: E-score
Construct (chain): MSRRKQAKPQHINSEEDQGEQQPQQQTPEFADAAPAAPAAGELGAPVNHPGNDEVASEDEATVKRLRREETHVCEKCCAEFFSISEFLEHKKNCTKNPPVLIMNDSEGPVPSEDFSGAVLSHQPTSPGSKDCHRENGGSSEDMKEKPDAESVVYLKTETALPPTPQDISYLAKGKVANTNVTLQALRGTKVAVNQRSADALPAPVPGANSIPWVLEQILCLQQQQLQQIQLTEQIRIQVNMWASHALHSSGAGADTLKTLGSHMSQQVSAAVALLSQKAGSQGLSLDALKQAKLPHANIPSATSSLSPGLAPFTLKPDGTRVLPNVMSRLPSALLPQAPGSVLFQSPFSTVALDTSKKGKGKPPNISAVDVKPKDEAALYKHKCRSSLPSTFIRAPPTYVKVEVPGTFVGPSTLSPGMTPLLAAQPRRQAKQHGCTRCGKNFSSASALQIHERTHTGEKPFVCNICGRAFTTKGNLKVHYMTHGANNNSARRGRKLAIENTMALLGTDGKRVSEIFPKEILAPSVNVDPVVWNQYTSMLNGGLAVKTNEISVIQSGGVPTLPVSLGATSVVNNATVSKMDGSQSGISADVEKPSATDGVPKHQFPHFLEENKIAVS
Sequence = GACCAGCA; value = -0.244
Sequence = CGCAACTC; value = -0.0351
Sequence = ACTTATAG; value = 0.143
Sequence = ATGACCTG; value = -0.0639
Sequence = TAGCAAGA; value = 0.0868
Sequence = AAGATCGC; value = -0.0882
Sequence = CTTGCGAA; value = 0.0296
Sequence = ATTTGAAG; value = 0.165
Sequence = ATCCCCAG; value = -0.113
Sequence = ACCCTGCT; value = -0.068
Sequence = TTCATAAA; value = 0.432
Sequence = CTACCGAG; value = -0.197
Sequence = GACTAATC; value = 0.0151
Sequence = CACATACC; value = 0.0753
Sequence = TGGTCTAA; value = -0.0406
Sequence = CCCAGGGA; value = -0.333
Sequence = ACCATTAC; value = 0.15
Sequence = CGTGAAAC; value = -0.0673
Sequence = AGCGGCTG; value = -0.217
Sequence = GATTCGCA; value = -0.1
Sequence = ATAGTCAC; value = 0.174
Sequence = CCGGGTCG; value = -0.364
Sequence = ACACGCTC; value = -0.0229
Sequence = GCCATCCC; value = -0.242
Sequence = GATCATCA; value = -0.0229

Block 2
Target: Histone acetyltransferase KAT6A, both winged helices, GST fusion (KAT6A, Homo sapiens, UniProt Q92794, residues 1-181)
Technique: protein binding microarray
Molecule type: double-stranded DNA, one strand shown
Matrix: in vitro
Tested at: not given
Setting: 8-mer, flanks averaged, mean of 2 arrays, mostly near background
Reference: not given
Direction: higher = stronger binding
Endpoint: E-score
Target sequence (chain): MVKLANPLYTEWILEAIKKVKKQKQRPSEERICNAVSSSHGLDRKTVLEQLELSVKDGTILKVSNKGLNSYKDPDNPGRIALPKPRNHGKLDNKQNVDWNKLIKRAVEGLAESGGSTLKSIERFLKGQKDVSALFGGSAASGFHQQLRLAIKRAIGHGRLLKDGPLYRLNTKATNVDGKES
Sequence = CATCGCCA; value = 0.168
Sequence = GTCACTAA; value = -0.242
Sequence = GGATTTAC; value = 0.0374
Sequence = TACAGTCA; value = -0.0985
Sequence = GAACGCAA; value = 0.0401
Sequence = CTTGAATC; value = -0.108
Sequence = CAGAGAAC; value = -0.109
Sequence = AATTACCA; value = -0.0863
Sequence = AATCTACT; value = 0.0207
Sequence = CATCGGCG; value = 0.198
Sequence = AATGCAAT; value = -0.13
Sequence = AGTCAGAT; value = -0.0964
Sequence = ATATCGGG; value = 0.073
Sequence = ATGAGAAG; value = -0.0386
Sequence = TAATGCTA; value = -0.0246
Sequence = ACTTTGGC; value = -0.0205
Sequence = AGTGTTGA; value = 0.0381
Sequence = AAAATCGA; value = -0.0609
Sequence = TATGGAGA; value = -0.209
Sequence = GAATCACA; value = 0.0563
Sequence = CCTCCGGA; value = 0.0542
Sequence = ACTCTGAA; value = -0.0317
Sequence = AACATACG; value = 0.182
Sequence = CACCAGGA; value = -0.143

Block 3
Target: ABI1, truncated, D143A, DHFR fusion (Arabidopsis thaliana)
Technique: DHFR PCA, deep sequencing
Matrix: yeast
Setting: methotrexate growth selection, single substitutions
With: (+)-ABA 0.0091 µM
Reference: wild-type fitted maximum
Direction: higher = stronger binding
Endpoint: relative binding score
Parent: PYL1, truncated, DHFR fusion (Arabidopsis thaliana); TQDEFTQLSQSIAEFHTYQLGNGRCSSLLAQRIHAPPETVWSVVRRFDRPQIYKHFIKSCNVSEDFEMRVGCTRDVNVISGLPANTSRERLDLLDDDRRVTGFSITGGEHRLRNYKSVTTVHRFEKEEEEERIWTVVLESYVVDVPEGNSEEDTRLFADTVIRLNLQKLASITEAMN
Variant = N22G; value = 22.4%
Variant = L93S; value = -8.15%
Variant = G23T; value = -0.196%
Variant = E67A; value = 8.09%
Variant = G102C; value = -5.92%
Variant = G108L; value = -4.88%
Variant = F5K; value = 7.2%
Variant = F5A; value = 3.23%
Variant = E14C; value = 0.455%
Variant = R163V; value = -1.44%
Variant = M68K; value = 0.0281%
Variant = H55T; value = 9.81%
Variant = H110V; value = 14.9%
Variant = D75I; value = 30.7%
Variant = R88L; value = 9.93%
Variant = R90M; value = -0.993%
Variant = R99P; value = -4.07%
Variant = M68W; value = 4.31%
Variant = H16A; value = 0.246%
Variant = V62T; value = -0.443%
Variant = Q10K; value = 38.9%
Variant = D97L; value = -2.64%
Variant = R90I; value = -8.16%
Variant = R49E; value = 25%
Variant = F157K; value = 1.7%

Block 4
Target: UBE2G2 UBC core domain (UniProt P60604)
Technique: yeast two-hybrid
Matrix: yeast
Setting: mostly zero background
Reference: not given
Direction: higher = stronger interaction
Endpoint: lacZ reporter activity
B1: TRIM69 RING domain (UniProt Q86WT6); chain VIQDITMELHCPLCNDWFRDPLMLSCGHNFCEACIQDFWRLQAKETFCPECKMLCQYNNCTF
B2: PHF21A RING domain (UniProt Q96BD5); chain SPTSTDGDIHEDFCSVCRKSGQLLMCDTCSRVYHLDCLDPPLKTIPKGMWICPRCQDQMLKKEEAIPW
B3: ZNF598 RING domain (UniProt Q86UK7); chain AAAPERGGGSCVLCCGDLEATALGRCDHPVCYRCSTKMRVLCEQRYCAVCREELRQVVFGK
B4: RC3H2 RING domain (UniProt Q9HBD1); chain QAAQWTEFLSCPICYNEFDENVHKPISLGCSHTVCKTCLNKLHRKACPFDQTAINTDIDVL
B5: ARK2C RING domain (UniProt Q6ZSG1); chain EGEESDTDEKCTICLSMLEDGEDVRRLPCMHLFHQLCVDQWLAMSKKCPICRVDIETQLGAD
Target sequence (chain): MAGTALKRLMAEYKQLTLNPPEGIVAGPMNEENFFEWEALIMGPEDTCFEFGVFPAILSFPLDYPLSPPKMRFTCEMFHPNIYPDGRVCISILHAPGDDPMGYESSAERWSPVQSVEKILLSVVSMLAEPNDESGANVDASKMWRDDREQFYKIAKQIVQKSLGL
Molecule = QLRRLQEERTCKVCMDKEVSVVFIPCGHLVVCQECAPSLRKCPICRGIIKGTVRTF (BIRC2 RING domain (UniProt Q13490)); value = 9460
Molecule = B1 (TRIM69 RING domain); value = 0
Molecule = EDEVSDNSAECVVCLSDVRDTLILPCRHLCLCNTCADTLRYQANNCPICRLPFRALLQIR (RNF157 RING domain (UniProt Q96PX1)); value = 16200
Molecule = YWAMDSTFELCKICAESNKDVKIEPCGHLLCSCCLAAWQHSDSQTCPFCRCEIKGWEAVS (CBLC RING domain (UniProt Q9ULV8)); value = 0
Molecule = B2 (PHF21A RING domain); value = 0
Molecule = KTLSRFGIQPCSICLGDAKDPVCLPCDHVHCLRCLRAWFASEQMICPYCLTALPDEFSPA (RNF213 RING domain (UniProt Q63HN8)); value = 0
Molecule = B3 (ZNF598 RING domain); value = 0
Molecule = B4 (RC3H2 RING domain); value = 0
Molecule = FPEHFVKSISCQICEHILADPVETNCKHVFCRVCILRCLKVMGSYCPSCRYPCFPTDLES (RAG1 RING domain (UniProt P15918)); value = 0
Molecule = B5 (ARK2C RING domain); value = 11000
Molecule = DAIPSLSECQCGICMEILVEPVTLPCNHTLCKPCFQSTVEKASLCCPFCRRRVSSWTRYH (RNF168 RING domain (UniProt Q8IYW5)); value = 7430
Molecule = QHHELTSLFECPVCFDYVLPPILQCQAGHLVCNQCRQKLSCCPTCRGALTPSIRNL (SIAH2 RING domain (UniProt O43255)); value = 0

Excerpt of the above (block 1):
Sequence = CCCAGGGA; value = -0.333
Sequence = TGGTCTAA; value = -0.0406
Sequence = GATTCGCA; value = -0.1
Sequence = ACACGCTC; value = -0.0229
Sequence = ATAGTCAC; value = 0.174
Sequence = AGCGGCTG; value = -0.217
Sequence = CTTGCGAA; value = 0.0296
Sequence = GATCATCA; value = -0.0229
Sequence = CGTGAAAC; value = -0.0673
Sequence = GCCATCCC; value = -0.242
